Measurements pooled from the literature.
Numbered parts are unrelated; each lists some results of a single study.
Sequence of UniProt Q9HCP0 (whole entry, looked up): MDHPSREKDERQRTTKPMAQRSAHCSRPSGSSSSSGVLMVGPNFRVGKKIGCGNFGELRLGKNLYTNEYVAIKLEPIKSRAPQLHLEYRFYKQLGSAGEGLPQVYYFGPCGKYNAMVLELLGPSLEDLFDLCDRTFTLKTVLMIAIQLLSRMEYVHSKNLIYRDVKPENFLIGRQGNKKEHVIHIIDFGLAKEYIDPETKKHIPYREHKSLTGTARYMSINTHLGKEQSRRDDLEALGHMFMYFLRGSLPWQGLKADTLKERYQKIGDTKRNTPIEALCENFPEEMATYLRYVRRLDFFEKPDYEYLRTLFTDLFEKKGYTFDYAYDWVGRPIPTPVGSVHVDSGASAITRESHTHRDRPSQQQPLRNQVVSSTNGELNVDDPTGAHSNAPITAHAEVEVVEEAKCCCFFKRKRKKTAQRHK
Sequence of UniProt P15056 (whole entry, looked up): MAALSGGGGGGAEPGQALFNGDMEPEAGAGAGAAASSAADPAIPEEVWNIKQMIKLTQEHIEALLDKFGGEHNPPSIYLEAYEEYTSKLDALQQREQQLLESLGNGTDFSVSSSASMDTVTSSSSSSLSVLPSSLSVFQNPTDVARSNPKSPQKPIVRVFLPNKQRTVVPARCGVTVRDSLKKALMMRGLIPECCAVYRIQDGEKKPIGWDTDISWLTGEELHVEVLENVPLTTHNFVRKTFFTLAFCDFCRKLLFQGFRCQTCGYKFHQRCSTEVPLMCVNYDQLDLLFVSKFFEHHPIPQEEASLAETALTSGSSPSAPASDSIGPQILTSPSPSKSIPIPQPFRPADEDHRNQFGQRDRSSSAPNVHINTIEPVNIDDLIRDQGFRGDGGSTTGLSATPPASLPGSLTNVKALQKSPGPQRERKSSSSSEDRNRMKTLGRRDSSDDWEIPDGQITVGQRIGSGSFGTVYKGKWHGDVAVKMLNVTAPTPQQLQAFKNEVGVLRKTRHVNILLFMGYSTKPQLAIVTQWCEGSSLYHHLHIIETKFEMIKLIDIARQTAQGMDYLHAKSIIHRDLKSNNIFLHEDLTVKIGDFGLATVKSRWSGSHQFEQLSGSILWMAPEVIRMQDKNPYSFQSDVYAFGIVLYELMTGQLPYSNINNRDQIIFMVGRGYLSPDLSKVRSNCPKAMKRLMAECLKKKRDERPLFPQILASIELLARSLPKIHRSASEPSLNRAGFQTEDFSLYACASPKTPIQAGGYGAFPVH
Sequence of UniProt P50613 (whole entry, looked up): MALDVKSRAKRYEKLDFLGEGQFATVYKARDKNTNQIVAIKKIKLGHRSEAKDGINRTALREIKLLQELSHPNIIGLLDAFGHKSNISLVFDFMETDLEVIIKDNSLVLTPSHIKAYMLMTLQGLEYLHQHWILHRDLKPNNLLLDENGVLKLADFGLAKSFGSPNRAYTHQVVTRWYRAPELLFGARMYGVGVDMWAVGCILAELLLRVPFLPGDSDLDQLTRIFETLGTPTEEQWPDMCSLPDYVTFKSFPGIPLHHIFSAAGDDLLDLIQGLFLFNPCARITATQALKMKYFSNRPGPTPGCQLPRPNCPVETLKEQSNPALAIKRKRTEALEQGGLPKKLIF
Sequence of UniProt P05771 (whole entry, looked up): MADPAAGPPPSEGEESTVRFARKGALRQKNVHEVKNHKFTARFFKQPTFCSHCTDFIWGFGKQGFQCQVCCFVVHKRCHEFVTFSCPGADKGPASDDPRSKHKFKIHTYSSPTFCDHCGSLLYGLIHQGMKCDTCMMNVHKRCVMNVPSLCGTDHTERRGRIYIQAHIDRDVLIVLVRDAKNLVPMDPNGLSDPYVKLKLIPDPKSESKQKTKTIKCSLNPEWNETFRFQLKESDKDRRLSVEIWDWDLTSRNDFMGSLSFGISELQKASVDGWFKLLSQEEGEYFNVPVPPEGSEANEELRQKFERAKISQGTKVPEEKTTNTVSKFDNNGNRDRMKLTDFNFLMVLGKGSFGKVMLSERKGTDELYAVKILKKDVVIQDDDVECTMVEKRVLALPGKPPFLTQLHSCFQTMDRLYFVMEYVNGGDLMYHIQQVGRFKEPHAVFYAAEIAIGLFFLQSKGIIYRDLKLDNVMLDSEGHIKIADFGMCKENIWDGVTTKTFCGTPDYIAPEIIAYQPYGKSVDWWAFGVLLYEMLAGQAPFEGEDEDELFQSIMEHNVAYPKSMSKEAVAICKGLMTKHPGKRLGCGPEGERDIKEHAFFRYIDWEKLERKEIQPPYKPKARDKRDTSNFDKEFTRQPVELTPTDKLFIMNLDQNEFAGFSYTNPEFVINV
Sequence of UniProt Q8IW41 (whole entry, looked up): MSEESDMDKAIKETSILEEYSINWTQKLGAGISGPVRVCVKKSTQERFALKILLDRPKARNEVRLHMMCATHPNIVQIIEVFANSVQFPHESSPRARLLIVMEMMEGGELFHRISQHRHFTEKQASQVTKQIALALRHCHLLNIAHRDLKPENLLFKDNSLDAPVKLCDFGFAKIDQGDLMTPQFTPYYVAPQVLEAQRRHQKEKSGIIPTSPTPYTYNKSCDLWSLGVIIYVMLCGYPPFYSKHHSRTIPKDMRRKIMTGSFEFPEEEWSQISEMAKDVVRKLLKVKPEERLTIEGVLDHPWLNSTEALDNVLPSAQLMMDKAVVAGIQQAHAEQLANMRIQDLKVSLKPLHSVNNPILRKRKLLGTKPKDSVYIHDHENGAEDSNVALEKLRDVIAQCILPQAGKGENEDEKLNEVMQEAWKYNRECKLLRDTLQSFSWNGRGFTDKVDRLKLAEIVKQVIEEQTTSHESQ
Sequence of UniProt Q9H1R3 (whole entry, looked up): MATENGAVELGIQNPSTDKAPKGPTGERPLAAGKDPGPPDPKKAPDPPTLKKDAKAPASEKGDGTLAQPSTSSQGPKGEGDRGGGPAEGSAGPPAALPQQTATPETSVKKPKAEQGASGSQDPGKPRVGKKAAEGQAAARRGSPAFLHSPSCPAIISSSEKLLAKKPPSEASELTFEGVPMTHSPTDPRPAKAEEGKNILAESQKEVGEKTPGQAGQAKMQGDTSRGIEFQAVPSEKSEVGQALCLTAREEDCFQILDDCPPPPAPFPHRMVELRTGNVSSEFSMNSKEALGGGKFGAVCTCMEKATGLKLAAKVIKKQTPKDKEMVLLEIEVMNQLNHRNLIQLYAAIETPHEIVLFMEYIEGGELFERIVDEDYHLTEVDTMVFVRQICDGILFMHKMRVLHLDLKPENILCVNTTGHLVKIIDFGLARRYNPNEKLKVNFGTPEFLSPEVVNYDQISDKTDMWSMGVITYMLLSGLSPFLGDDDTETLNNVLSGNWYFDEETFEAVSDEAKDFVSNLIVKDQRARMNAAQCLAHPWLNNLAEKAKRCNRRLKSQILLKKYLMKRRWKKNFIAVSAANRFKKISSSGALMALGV
Sequence of UniProt P42679 (whole entry, looked up): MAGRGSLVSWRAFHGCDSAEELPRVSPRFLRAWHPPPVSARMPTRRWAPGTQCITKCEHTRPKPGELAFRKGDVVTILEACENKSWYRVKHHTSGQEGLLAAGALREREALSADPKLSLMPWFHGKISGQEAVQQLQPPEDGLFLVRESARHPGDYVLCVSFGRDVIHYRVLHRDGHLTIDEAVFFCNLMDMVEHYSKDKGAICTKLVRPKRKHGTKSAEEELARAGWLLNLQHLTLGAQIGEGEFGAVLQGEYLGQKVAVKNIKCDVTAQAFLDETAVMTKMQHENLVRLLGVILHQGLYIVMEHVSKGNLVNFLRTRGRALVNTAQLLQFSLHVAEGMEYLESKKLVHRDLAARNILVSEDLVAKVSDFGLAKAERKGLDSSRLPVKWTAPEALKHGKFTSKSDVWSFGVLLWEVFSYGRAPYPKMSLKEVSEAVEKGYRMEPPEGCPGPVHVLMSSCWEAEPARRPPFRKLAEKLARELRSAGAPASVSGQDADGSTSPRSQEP
Sequence of UniProt P29322 (whole entry, looked up): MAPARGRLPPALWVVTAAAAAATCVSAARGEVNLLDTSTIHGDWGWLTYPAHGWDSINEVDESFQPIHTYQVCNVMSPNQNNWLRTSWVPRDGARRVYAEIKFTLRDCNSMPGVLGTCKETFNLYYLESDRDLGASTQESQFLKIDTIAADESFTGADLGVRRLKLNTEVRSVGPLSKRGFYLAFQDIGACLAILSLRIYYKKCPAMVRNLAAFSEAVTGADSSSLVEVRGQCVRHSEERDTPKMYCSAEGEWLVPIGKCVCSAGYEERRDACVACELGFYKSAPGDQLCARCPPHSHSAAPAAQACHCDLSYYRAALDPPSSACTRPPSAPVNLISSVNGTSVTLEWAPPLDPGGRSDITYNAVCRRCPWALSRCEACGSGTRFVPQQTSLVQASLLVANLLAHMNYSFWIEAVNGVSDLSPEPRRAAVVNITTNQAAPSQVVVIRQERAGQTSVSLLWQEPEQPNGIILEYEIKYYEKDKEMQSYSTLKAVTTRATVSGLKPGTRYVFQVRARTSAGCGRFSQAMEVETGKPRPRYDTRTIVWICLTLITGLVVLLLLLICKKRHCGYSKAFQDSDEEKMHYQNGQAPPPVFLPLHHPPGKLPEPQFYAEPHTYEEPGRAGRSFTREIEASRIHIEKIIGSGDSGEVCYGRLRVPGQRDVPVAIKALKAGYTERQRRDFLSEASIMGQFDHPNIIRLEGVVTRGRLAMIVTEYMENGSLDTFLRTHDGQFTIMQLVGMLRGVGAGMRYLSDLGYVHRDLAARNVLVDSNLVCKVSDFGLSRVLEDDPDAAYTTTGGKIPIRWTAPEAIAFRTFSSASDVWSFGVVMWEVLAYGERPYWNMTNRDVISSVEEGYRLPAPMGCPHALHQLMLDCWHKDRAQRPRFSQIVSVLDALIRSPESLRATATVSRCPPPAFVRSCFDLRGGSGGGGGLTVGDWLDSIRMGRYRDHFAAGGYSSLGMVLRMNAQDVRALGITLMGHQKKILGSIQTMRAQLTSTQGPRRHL

Series 1
Organism: Sarcocystis neurona
Observed: parasite growth
Tested at: 10 µM
The inhibition of `CN(C)[C@@H]1C(O)=C(C(N)=O)C(=O)[C@@]2(O)C(O)=C3C(=O)c4c(O)cccc4[C@@](C)(O)[C@H]3[C@H](O)[C@@H]12` is reported as 9.5%.
The inhibition of `CCN(CC)C(=S)SSC(=S)N(CC)CC` is reported as 96.3%.
With `CN1C(=O)CC[C@H]1c1cccnc1` the inhibition was -24%.
`CC(=O)CCCCn1cnc2c1c(=O)n(C)c(=O)n2C` has an inhibition of -20.2%.
The inhibition of `CC[C@]1(O)C[C@H]2CN(CCc3c([nH]c4ccccc34)[C@@](C(=O)OC)(c3cc4c(cc3OC)N(C=O)[C@H]3[C@@](O)(C(=O)OC)[C@H](OC(C)=O)[C@]5(CC)C=CCN6CC[C@]43[C@@H]65)C2)C1` is reported as 2.5%.
`COc1ccc(CC2c3cc(OC)c(OC)cc3CC[N+]2(C)CCC(=O)OCCCCCOC(=O)CC[N+]2(C)CCc3cc(OC)c(OC)cc3C2Cc2ccc(OC)c(OC)c2)cc1OC` (stereo not drawn) has an inhibition of 6.6%.

Series 2
SMILES: CO[C@H]1C[C@@H]2CC[C@@H](C)[C@@](O)(O2)C(=O)C(=O)N2CCCC[C@H]2C(=O)O[C@H]([C@H](C)C[C@@H]2CC[C@@H](O)[C@H](OC)C2)CC(=O)[C@H](C)/C=C(\C)[C@@H](O)[C@@H](OC)C(=O)[C@H](C)C[C@H](C)/C=C/C=C/C=C/1C
Observed: enzyme activity
Action: inhibitor
Tested at: 0.5 µM
Baseline: control
It gave 92.7% for remaining activity (EPHA8 (Homo sapiens, UniProt P29322)).
It gave 93.5% for remaining activity (STK24 (Homo sapiens, UniProt Q9Y6E0)).
The remaining activity was 103% (MYLK2 (Homo sapiens, UniProt Q9H1R3)).
For CAMK2G (Homo sapiens, UniProt Q13555): remaining activity read 101%.
It gave 98% for remaining activity (MAPKAPK5 (Homo sapiens, UniProt Q8IW41)).
The remaining activity was 96% (CSNK1G1 (Homo sapiens, UniProt Q9HCP0)).
It gave 89.1% for remaining activity (Protein kinase C beta type, isoform beta-II (PRKCB, Homo sapiens, UniProt P05771)).

Series 3
SMILES: O=C(NC[C@@H]1[C@H]2CN(C(=O)OCc3cc(C(F)(F)F)cc(C(F)(F)F)c3)C[C@@H]12)c1ccc2[nH]nnc2c1
Observed: cell-free assay
Technique: competition with immobilised ligand
Tested at: 1 µM
For CDK7 (Homo sapiens, UniProt P50613): remaining binding read 92%.
For FLT3 (Homo sapiens, UniProt P36888, R834Q): remaining binding read 88%.
For MATK (Homo sapiens, UniProt P42679): remaining binding read 100%.
MAP3K5 (Homo sapiens, UniProt Q99683) — remaining binding: 13%.
It gave 98% for remaining binding (BRAF (Homo sapiens, UniProt P15056)).

Series 4
Species: human
Medium: microsomes or S9
Tested at: 2 µM
Time: 0.5 h
`CCOC(=O)N1CCN(C(=O)c2ccc(-c3ccc(Oc4ccccc4)cc3)nc2)CC1` has a remaining compound of 3.06%.
`Cc1nc2c(c(C)c1CNC(=O)COC1CCCCC1)c(=O)[nH]n2C` gave a remaining compound of 62.2%.
`CC1(C)OC2CC(=O)OCC23C1CC(=O)C1(C)C3CC[C@@]2(C)[C@H](c3ccoc3)OC(=O)C3OC312` (stereo partly drawn) gave a remaining compound of 91.2%.
The remaining compound of `c1ccc(C2CCCN2Cc2ccc3occc3c2)nc1` (stereo not drawn) is reported as 64.6%.
`O=C1C=C(N(Cc2ccc(Cl)nc2)Cc2cnc(Cl)s2)CO1` gave a remaining compound of 71.1%.
For `O=C(CCCOc1ccc(F)cc1F)Nc1ccc2nc[nH]c(=O)c2c1`, the remaining compound was 44.1%.

For quick reference, copied from above (series 2):
It gave 93.5% for remaining activity (STK24 (Homo sapiens, UniProt Q9Y6E0)).
The remaining activity was 103% (MYLK2 (Homo sapiens, UniProt Q9H1R3)).
For CAMK2G (Homo sapiens, UniProt Q13555): remaining activity read 101%.
